Assay results pooled from the literature.
Lines come from different studies, so protocols differ. Several values in a cell are separate wells, animals, samples, runs or records.
Target: Adenosine receptor A2a (ADORA2A, Homo sapiens, UniProt P29274)

`CN[C@@H]1[C@H](O)[C@H](NC)[C@H]2O[C@]3(O)[C@H](O[C@@H]2[C@H]1O)O[C@H](C)C[C@H]3NC(=O)Cc1ccc(Cl)cn1` gave an inhibition of 2% (cell-free assay; 10 µM).
The inhibition of `CS(C)(=O)=Nc1ccc(-c2ccc(-c3nc4cc(O[C@@H]5CO[C@H]6[C@@H]5OC[C@H]6O)[nH]c4cc3F)cc2)cc1` is reported as -15% (calcium signal, antagonist; 10 µM).
The inhibition of `CC(C)[C@@H](Nc1nc(Cl)nc2c1ncn2[C@H]1[C@H](O)[C@H](O)[C@]2(CF)C[C@H]12)C1CC1` is reported as 73% (ligand displacement, radioligand; 10 µM).
`Cc1cc(Nc2nc(C[C@@]3(C(=O)O)CCN(Cc4cccc(Cl)c4F)[C@H](C)C3)cc(C)c2F)[nH]n1` has an activation of -0.03% (agonist; 10 µM).
The activation of `C/C(=N\OCCCN1CCCCC1)c1ccc(C(F)(F)F)cc1` is reported as 2.14% (agonist, cAMP; 10 µM).
`O=C(O)c1ccc(-c2nc(-c3ccccc3Cl)c3sccn23)cc1` has a specific binding of 97% and 105% (radioligand binding; 10 µM, together with: NECA; reference: control).
For `CCN(CC)CCOc1ccc(-c2nnn(Cc3ccc(OC)cc3)c2N)cc1`, the inhibition was -8.98% (radioligand binding; HEK293; 10 µM, safety profiling).
For `COc1ccc(F)cc1S(=O)(=O)Nc1cnc2c(c1)C(=O)NCCO2`, the inhibition was -8% (ligand displacement, radioligand; 10 µM).
With `N[C@H](C(=O)N1CCCC1)C1CCN(c2nccc3c(-c4ncc(Cl)cc4Cl)cccc23)CC1` the response was 2% (agonist, cell-based functional; 10 µM).
Under antagonist activity, `Cc1cc(-c2ccc3ccccc3c2)nnc1NCCN1CCN(C)CC1` is recorded as “negative” (antagonist; concentration not given).
The remaining binding of `CCc1nnc(-c2c(OC)cc(-c3cnc4cc(-c5cnn(C)c5)ccn34)cc2OC)o1` is reported as 91% (agonist radioligand, radioligand binding; 10 µM, SafetyScreen44 A2A replicate 2; lower = stronger displacement).
`Cc1ccc2c(n1)c(-c1cccc(S(C)(=O)=O)c1)c(C)n2C/C(F)=C/CN` has an inhibition of 1% (ligand displacement, radioligand; 10 µM).
For `C[C@@H]1COCCN1c1nc(NCc2cccnc2C(F)(F)F)c2cccnc2n1`, the IC50 was greater than 100 µM (binding; CEREP panel).
The inhibition of `C[C@H](NCc1ccc(-c2ccc(C(F)(F)F)cc2)cc1)C(N)=O` is reported as -2% (radioligand binding; 1 µM, together with: 0.05 µM [3H]CGS-21680).
